Measurements from different studies.
Compare with care: the assays were run in different laboratories. “And” joins repeats or separate records; there may be more than shown.
Target: Histamine H2 receptor (HRH2, Homo sapiens, UniProt P25021)

Compound | assay | test system | setting | scale | measurement | value
CCCO[C@H]1[C@H](O)[C@@H](N)[C@@H](O[C@H]2[C@H](O[C@@H]3O[C@H](CO)[C@@H](O[C@H]4O[C@@H](CN)[C@@H](O)[C@H](O)[C@H]4N)[C@H]3O)[C@@H](O)[C@H](N)C[C@@H]2N)O[C@@H]1CO | radioligand binding | – | 10 µM, 1% DMSO | – | specific binding | -7%
Cc1sc2c(c1C)C(c1ccc(Cl)cc1)=NC(CC(=O)OC(C)(C)C)c1nnc(C)n1-2 (centres unmarked) | ligand displacement, radioligand | – | 1 µM | – | inhibition | -27%
CCc1nnc(-c2c(OC)cc(-c3cnc4cc(-c5cnn(C)c5)ccn34)cc2OC)o1 | antagonist radioligand, radioligand binding | – | 10 µM, SafetyScreen44 H2 replicate 2 | lower = stronger displacement | remaining binding | 99.4%
COc1ccc(F)cc1S(=O)(=O)Nc1cnc2c(c1)C(=O)NCCO2 | ligand displacement, radioligand | – | 10 µM | – | inhibition | 10%
C/C(=N\OCCCN1CCCCC1)c1ccc(C(F)(F)F)cc1 | antagonist, cAMP | – | 10 µM | – | inhibition | 27.5%
Cc1cc(Nc2nc(C[C@@]3(C(=O)O)CCN(Cc4cccc(Cl)c4F)[C@H](C)C3)cc(C)c2F)[nH]n1 | agonist | – | 10 µM | – | activation | -0.05%
CN[C@@H]1[C@H](O)[C@H](NC)[C@H]2O[C@]3(O)[C@H](O[C@@H]2[C@H]1O)O[C@H](C)C[C@H]3NC(=O)Cc1cc(Cl)ccn1 | ligand displacement, radioligand | – | 10 µM | – | inhibition | -7%
Cc1ccc2c(n1)c(-c1cccc(S(C)(=O)=O)c1)c(C)n2C/C(F)=C/CN | ligand displacement, radioligand | – | 10 µM | – | inhibition | 3%
CCN(CC)CCOc1ccc(-c2nnn(Cc3ccc(OC)cc3)c2N)cc1 | radioligand binding | HEK293 | 10 µM, safety profiling | – | inhibition | -2.74%
N[C@H](C(=O)N1CCCC1)C1CCN(c2nccc3c(-c4ncc(Cl)cc4Cl)cccc23)CC1 | functional response, agonist | – | 10 µM | – | response | 2%
O=C(O)c1ccc(-c2nc(-c3ccccc3Cl)c3sccn23)cc1 | radioligand binding, safety screen panel | – | 10 µM | relative to: control | specific binding | 115% and 111%
CS(C)(=O)=Nc1ccc(-c2ccc(-c3nc4cc(O[C@@H]5CO[C@H]6[C@@H]5OC[C@H]6O)[nH]c4cc3F)cc2)cc1 | calcium signal, antagonist | – | 10 µM | – | inhibition | 13%
CCOC(=O)[C@](CC)(CCCSCCOCCOCCNC(=O)c1ccc(-c2c3ccc(=N)c(S(=O)(=O)O)c-3oc3c(S(=O)(=O)O)c(N)ccc23)c(C(=O)O)c1)NC(=O)c1ccc(C2CC2)c(Cc2ccc(F)cc2)n1 | ligand displacement, radioligand | – | 10 µM | – | inhibition | 15%
Cc1cc(-c2ccc3ccccc3c2)nnc1NCCN1CCN(C)CC1 | antagonist | – | concentration not given | – | antagonist activity | negative

A few entries again:
Compound | assay | test system | setting | scale | measurement | value
Cc1cc(-c2ccc3ccccc3c2)nnc1NCCN1CCN(C)CC1 | antagonist | – | concentration not given | – | antagonist activity | negative
